Assay results gathered from unrelated publications.
Each line is one published result; not all experiments were run side by side.
Organism: Acinetobacter baumannii

CCn1c(-c2ccc(-c3ccc(F)cc3)cc2)c(-c2ccc(-c3ccc(F)cc3)cc2)n(CC)c1=[Se] — MIC (broth microdilution; carbapenem-resistant; 24 h): > 40 µM
CC(=O)N[C@H](Cc1ccc(F)cc1)C(=O)N[C@@H](CCN)C(=O)N[C@H](C(=O)N[C@@H](CCN)C(=O)N[C@H]1CCNC(=O)[C@H]([C@@H](C)O)NC(=O)[C@H](CCN)NC(=O)[C@H](CCN)NC(=O)[C@H](CC(C)C)NC(=O)[C@@H](Cc2ccccc2)NC(=O)[C@H](CCN)NC1=O)[C@@H](C)O — MIC (broth microdilution; colistin-resistant isolates): 16 to 32 µg/mL
N=C(N)NCCC[C@@H]1NC(=O)[C@H](CCCNC(=N)N)NC(=O)[C@H](CCCNC(=N)N)NC(=O)[C@@H](CCCNC(=N)N)NC(=O)[C@H](Cc2ccc3ccccc3c2)NC(=O)[C@H](Cc2ccc3ccccc3c2)NC(=O)[C@H](Cc2ccc3ccccc3c2)NC1=O — MIC (NCTC 13304, carbapenem-resistant): 16 µg/mL
CC[C@H](C)[C@H](NC(=O)[C@@H](CCCNC(=N)N)NC(=O)[C@H](CCCNC(=N)N)NC(=O)[C@@H]1CCCN1C(=O)[C@@H]1CCCN1C(=O)[C@H](CCCNC(=N)N)NC(=O)[C@@H]1CCCN1C(=O)[C@H](CCCNC(=N)N)NC(=O)[C@@H]1CCCN1C(=O)[C@H](CC(C)C)NC(=O)[C@H](Cc1ccc(O)cc1)NC(=O)[C@@H]1CCCN1C(=O)[C@H](Cc1ccccc1)NC(=O)[C@H](CCCCN)NC(=O)[C@H](CC(=O)O)NC(=O)[C@@H](N)C(C)C)C(=O)N[C@@H](Cc1ccc(O)cc1)C(=O)N[C@@H](CC(N)=O)C(=O)N[C@H](CCCNC(=N)N)C(N)=O — MIC (broth microdilution; DSM 30008; 18 h, 37 °C, 25% MHB2): 32 µg/mL
CC(C)C[C@@H]1NC(=O)[C@@H](CC(C)C)NC(=O)[C@H](CCN)NC(=O)[C@@H](NC(=O)[C@H](CCN)NC(=O)[C@@H](NC(=O)CN=[N+]=[N-])[C@@H](C)O)CCNC(=O)[C@H]([C@@H](C)O)NC(=O)[C@H](CCN)NC(=O)[C@H](CCN)NC1=O — MIC (broth microdilution; BAA-747): > 126 µM
Oc1c(Br)cc(Br)c2nc3cc(Cl)ccc3nc12 — MIC (OD600; 19606): > 100 µM
CN[C@@H]1[C@H](O)[C@H](NC)[C@H]2O[C@]3(O)[C@H](O[C@@H]2[C@H]1O)O[C@H](C)C[C@H]3NC(=O)Cc1ccc(F)cn1 — MIC (microbial growth, broth dilution; ATCC19606): > 200 µg/mL
CC[C@H](C)[C@H](NC(=O)[C@@H](CCCNC(=N)N)NC(=O)[C@H](CCCNC(=N)N)NC(=O)[C@H](CCC(N)=O)NC(=O)[C@H](Cc1c[nH]c2ccccc12)NC(=O)[C@H](CCCNC(=N)N)NC(=O)[C@@H]1CCCN1C(=O)[C@H](CCCNC(=N)N)NC(=O)[C@@H]1CCCN1C(=O)[C@H](CC(C)C)NC(=O)[C@H](Cc1ccc(O)cc1)NC(=O)[C@@H]1CCCN1C(=O)[C@@H]1CCCN1C(=O)[C@H](CCCCN)NC(=O)[C@H](CC(=O)O)NC(=O)[C@@H](N)C(C)C)C(=O)N[C@@H](Cc1ccc(O)cc1)C(=O)N[C@@H](CC(N)=O)C(=O)N[C@H](CCCNC(=N)N)C(N)=O — MIC (broth microdilution; DSM 30008; 18 h, 37 °C, 25% MHB2): 32 µg/mL
O=[N+]([O-])c1cc(Cl)c2cccnc2c1O — MIC (broth microdilution; carbapenem-resistant clinical isolate): 4 µg/mL
C#CCNC(=O)[C@H]1NC(=O)[C@H]2NC(=O)[C@H](NC(=O)[C@@H]3NC(=O)[C@H](CC(N)=O)NC(=O)[C@H](NC(=O)[C@@H](CC(C)C)NC)[C@H](O)c4ccc(c(Cl)c4)Oc4cc3cc(c4O[C@@H]3O[C@H](CO)[C@@H](O)[C@H](O)[C@H]3O[C@H]3C[C@](C)(N)[C@H](O)[C@H](C)O3)Oc3ccc(cc3Cl)[C@H]2O)c2ccc(O)c(c2)-c2c(O)cc(O)cc21 — MIC (broth microdilution; BAA-747, cation-adjusted Mueller-Hinton broth; 18 to 20 h, 37 °C, 0.002% polysorbate 80): 128 µg/mL
CC[C@H](C)[C@H](NC(=O)[C@H](Cc1c[nH]c2ccccc12)NC(=O)[C@H](Cc1ccc(O)cc1)NC(=O)[C@H](CCCCN)NC(=O)[C@H](CC(C)C)NC(=O)[C@@H](N)CO)C(=O)N[C@@H](CCCNC(=N)N)C(=O)N[C@@H](Cc1ccc(O)cc1)C(=O)N[C@@H](CCCCN)C(=O)N[C@@H](CCCNC(=N)N)C(=O)N[C@@H](CCC(N)=O)C(=O)NCC(=O)N[C@@H](C)C(=O)N[C@@H](C)C(=O)N[C@@H](CCCNC(=N)N)C(=O)N[C@@H](Cc1ccccc1)C(N)=O — MIC (broth dilution; ATCC 19606): 6.3 µM
CCCCCCCC(=O)N[C@@H](CCN)C(=O)N[C@H](C(=O)N[C@@H](CCN)C(=O)N[C@H]1CCNC(=O)[C@H]([C@@H](C)O)NC(=O)[C@H](CCN)NC(=O)[C@H](CCN)NC(=O)[C@H](Cc2cccc(F)c2)NC(=O)[C@@H](CC(C)C)NC(=O)[C@H](CCN)NC1=O)[C@@H](C)O — MIC (broth microdilution; colistin-resistant isolates): 4 to 8 µg/mL
CCCCCCCC(=O)N[C@@H](CCN)C(=O)N[C@H](C(=O)N[C@@H](CCN)C(=O)N[C@H]1CCNC(=O)[C@H]([C@@H](C)O)NC(=O)[C@H](CCN)NC(=O)[C@H](CCN)NC(=O)[C@H](CC(C)C)NC(=O)[C@@H](C)NC(=O)[C@H](CCN)NC1=O)[C@@H](C)O — MIC (CLSI broth microdilution; 246-01-C.246, CAMHB; 20 h, 37 °C): 256 µg/mL
CCCCCCCC(=O)N[C@@H](CCN)C(=O)N[C@H](C(=O)N[C@@H](CCN)C(=O)N[C@H]1CCNC(=O)[C@H]([C@@H](C)O)NC(=O)[C@H](CCN)NC(=O)[C@H](CCN)NC(=O)[C@H](CC(C)C)NC(=O)[C@@H](Cc2c(F)c(F)c(F)c(F)c2F)NC(=O)[C@H](CCN)NC1=O)[C@@H](C)O — MIC (broth microdilution; ATCC 19606, colistin-susceptible): < 0.125 µg/mL
CC[C@H](C)[C@H](NC(=O)[C@@H](CCCNC(=N)N)NC(=O)[C@H](CCCNC(=N)N)NC(=O)[C@H](Cc1c[nH]c2ccccc12)NC(=O)[C@H](Cc1c[nH]c2ccccc12)NC(=O)[C@H](CCCNC(=N)N)NC(=O)[C@@H]1CCCN1C(=O)[C@H](CCCNC(=N)N)NC(=O)[C@@H]1CCCN1C(=O)[C@H](CC(C)C)NC(=O)[C@H](Cc1ccc(O)cc1)NC(=O)[C@@H]1CCCN1C(=O)[C@@H]1CCCN1C(=O)[C@H](CCCCN)NC(=O)[C@H](CC(=O)O)NC(=O)[C@@H](N)C(C)C)C(=O)N[C@@H](Cc1ccc(O)cc1)C(=O)N[C@@H](CC(N)=O)C(=O)N[C@H](CCCNC(=N)N)C(N)=O — MIC (broth microdilution; DSM 30008; 18 h, 37 °C, 25% MHB2): 16 µg/mL
CCCCCCCC(=O)N[C@@H](CCN)C(=O)N[C@H](C(=O)N[C@@H](CCN)C(=O)N[C@H]1CCNC(=O)[C@H](C)NC(=O)[C@H](CCN)NC(=O)[C@H](CCN)NC(=O)[C@H](CC(C)C)NC(=O)[C@@H](Cc2ccccc2)NC(=O)[C@H](CCN)NC1=O)[C@@H](C)O — MIC (broth microdilution; ATCC 17978; 20 h, 37 °C): 1 µg/mL
CC[C@H](C)[C@H](NC(=O)[C@@H](CCCNC(=N)N)NC(=O)[C@H](CCCNC(=N)N)NC(=O)[C@@H]1CCCN1C(=O)[C@@H]1CCCN1C(=O)[C@H](Cc1c[nH]cn1)NC(=O)[C@@H]1CCCN1C(=O)[C@H](CCCNC(=N)N)NC(=O)[C@@H]1CCCN1C(=O)[C@H](CC(C)C)NC(=O)[C@H](Cc1ccc(O)cc1)NC(=O)[C@@H]1CCCN1C(=O)[C@@H]1CCCN1C(=O)[C@H](CCCCN)NC(=O)[C@H](CC(=O)O)NC(=O)[C@@H](N)C(C)C)C(=O)N[C@@H](Cc1ccc(O)cc1)C(=O)N[C@@H](CC(N)=O)C(=O)N[C@H](CCCNC(=N)N)C(N)=O — MIC (broth microdilution; DSM 30008; 18 h, 37 °C, 25% MHB2): 32 µg/mL
CCCCCCCC(=O)N[C@@H](CCN)C(=O)N[C@@H](C)C(=O)N[C@@H](CCN)C(=O)N[C@H]1CCNC(=O)[C@H]([C@@H](C)O)NC(=O)[C@H](CCN)NC(=O)[C@H](CCN)NC(=O)[C@H](CC(C)C)NC(=O)[C@@H](Cc2ccccc2)NC(=O)[C@H](CCN)NC1=O — MIC (CLSI broth microdilution; 246-01-C.246, CAMHB; 20 h, 37 °C): > 512 µg/mL

Excerpt of the above:
CC[C@H](C)[C@H](NC(=O)[C@@H](CCCNC(=N)N)NC(=O)[C@H](CCCNC(=N)N)NC(=O)[C@H](CCC(N)=O)NC(=O)[C@H](Cc1c[nH]c2ccccc12)NC(=O)[C@H](CCCNC(=N)N)NC(=O)[C@@H]1CCCN1C(=O)[C@H](CCCNC(=N)N)NC(=O)[C@@H]1CCCN1C(=O)[C@H](CC(C)C)NC(=O)[C@H](Cc1ccc(O)cc1)NC(=O)[C@@H]1CCCN1C(=O)[C@@H]1CCCN1C(=O)[C@H](CCCCN)NC(=O)[C@H](CC(=O)O)NC(=O)[C@@H](N)C(C)C)C(=O)N[C@@H](Cc1ccc(O)cc1)C(=O)N[C@@H](CC(N)=O)C(=O)N[C@H](CCCNC(=N)N)C(N)=O — MIC (broth microdilution; DSM 30008; 18 h, 37 °C, 25% MHB2): 32 µg/mL
CC[C@H](C)[C@H](NC(=O)[C@@H](CCCNC(=N)N)NC(=O)[C@H](CCCNC(=N)N)NC(=O)[C@H](Cc1c[nH]c2ccccc12)NC(=O)[C@H](Cc1c[nH]c2ccccc12)NC(=O)[C@H](CCCNC(=N)N)NC(=O)[C@@H]1CCCN1C(=O)[C@H](CCCNC(=N)N)NC(=O)[C@@H]1CCCN1C(=O)[C@H](CC(C)C)NC(=O)[C@H](Cc1ccc(O)cc1)NC(=O)[C@@H]1CCCN1C(=O)[C@@H]1CCCN1C(=O)[C@H](CCCCN)NC(=O)[C@H](CC(=O)O)NC(=O)[C@@H](N)C(C)C)C(=O)N[C@@H](Cc1ccc(O)cc1)C(=O)N[C@@H](CC(N)=O)C(=O)N[C@H](CCCNC(=N)N)C(N)=O — MIC (broth microdilution; DSM 30008; 18 h, 37 °C, 25% MHB2): 16 µg/mL
N=C(N)NCCC[C@@H]1NC(=O)[C@H](CCCNC(=N)N)NC(=O)[C@H](CCCNC(=N)N)NC(=O)[C@@H](CCCNC(=N)N)NC(=O)[C@H](Cc2ccc3ccccc3c2)NC(=O)[C@H](Cc2ccc3ccccc3c2)NC(=O)[C@H](Cc2ccc3ccccc3c2)NC1=O — MIC (NCTC 13304, carbapenem-resistant): 16 µg/mL
